Results of several laboratories.
Lines come from different studies, so protocols differ. ± gives the spread as reported. Converted amounts (≈) assume the structure as drawn.
TDP1: Tyrosyl-DNA phosphodiesterase 1 (TDP1, Homo sapiens, UniProt Q9NUW8)
UniProt Q9NUW8, sequence (whole entry, looked up): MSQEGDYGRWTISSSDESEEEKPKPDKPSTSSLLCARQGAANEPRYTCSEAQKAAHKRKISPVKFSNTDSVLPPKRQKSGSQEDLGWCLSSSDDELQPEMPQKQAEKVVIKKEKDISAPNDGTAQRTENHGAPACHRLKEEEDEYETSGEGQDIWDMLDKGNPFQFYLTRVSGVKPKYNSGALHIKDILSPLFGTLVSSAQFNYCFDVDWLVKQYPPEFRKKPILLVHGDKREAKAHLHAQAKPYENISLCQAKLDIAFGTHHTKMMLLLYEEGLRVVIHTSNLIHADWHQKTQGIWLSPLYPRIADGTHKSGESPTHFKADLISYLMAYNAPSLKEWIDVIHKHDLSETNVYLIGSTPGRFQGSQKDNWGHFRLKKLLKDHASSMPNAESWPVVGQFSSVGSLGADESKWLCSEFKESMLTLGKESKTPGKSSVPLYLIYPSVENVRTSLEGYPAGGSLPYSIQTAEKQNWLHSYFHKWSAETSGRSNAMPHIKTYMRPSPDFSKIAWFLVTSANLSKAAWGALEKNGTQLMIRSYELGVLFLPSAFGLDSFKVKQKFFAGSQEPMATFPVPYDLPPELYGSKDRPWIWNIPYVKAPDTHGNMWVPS

`CN1CCCNC(=O)c2cccc(c2)C(=O)NCCCN(C)CCCNc2cccc3c2C(=O)c2cccc(c2C3=O)NCCC1`: “log2 fold change” -0.578 (SAS; RNA-Seq, measured: CDC27 mRNA; 1 µM, 6 h; relative to: untreated cells).
For `O=C(O)c1ccc(Nc2c(-c3ccccc3)nc3ccc(CON=Cc4cc(F)cc5c4OCOC5)cn23)cc1`, the inhibition was -6.7% (TDP1; enzyme activity, inhibitor; 100 µM, unpurified compound).
The remaining binding of `Nc1ncc(-c2cc(-c3cnn(CC(F)(F)F)c3)ncc2F)nc1C(=O)NC1CNCC(F)C1` (stereo not drawn) is reported as 78% (ALK; KINOMEscan; 1 µM; relative to: DMSO control).
For `c1ccc(-c2n[nH]cc2-c2ccnc3ccccc23)nc1`, “log2 fold change” read -0.06 (CKA2 (Candida albicans); kinase binding, MIB/MS competition; Candida albicans lysate; 10 µM; relative to: DMSO).
The inhibition of `CO[C@@H]1OC[C@@H](O)[C@H](O)[C@H]1O` is reported as 0% (Helicobacter pylori; microbial growth, broth dilution; 7.81 µg/mL).
For `CCN(CC)CC(=O)Nc1cccc(-n2cc(-c3ccc4ccc(-c5cn(-c6cccc(NC(=O)CN(CC)CC)c6)nn5)cc4c3)nn2)c1`, the fold regulation was -1.23 fold (RCC4; PCR angiogenesis array, measured: TIMP1; 5 x IC50, 4 h, normoxia; relative to: untreated).
`CNS(=O)(=O)Nc1nccc(Cc2c(C)c3ccc(Oc4ncccc4F)cc3oc2=O)c1F` has an IC50 of 214 nM (MSTO-211H; cell viability; 7 days).
With `CN1CCC[C@]1(C)/C=C/S(=O)(=O)NC(=O)Nc1c2c(cc3c1CCC3)CCC2` the IL-1β inhibition was 41.7% (human, whole blood ex vivo; 12.5 mg twice daily, day 14, 24 h, multiple ascending dose, added: LPS and ATP).
`C=CC(=O)Nc1cccc(Cn2ncc3cnc(Nc4cnn(CCOC)c4)nc32)c1` gave a binding of 100% (human p38-delta; KINOMEscan; 100 nM; relative to: control).
For `C=CC(=O)N1[C@H](c2ccc3c(c2)OCO3)c2[nH]c3ccccc3c2C[C@@H]1C(=O)N1CCN(C)CC1`, the relative co-enrichment was 123% (human cyclin E1 N112C-3xFLAG:CDK2; co-IP with TMT proteomics, measured: PPIB; concentration not given; relative to: wild type DMSO).
For `CC=C(C)C(=O)OC1CC2C(C=C(C)C3C(OC(C)=O)CC(=O)C13C)OC(=O)C2C` (stereo not drawn), the inhibition was 0% (Helicobacter pylori; microbial growth, broth dilution; 0.24 µg/mL).
For `C=C(NC(=O)c1csc(-c2nc3c(cc2O)-c2nc(cs2)C(=O)NC(C(C)O)C(=O)NC(=C(C)OC)c2nc(cs2)C(=O)NC2c4nc(cs4)C(=O)NC(COC(=O)c4c5c6c(cccc6n4O)COC(=O)C(OC4CC(C)(O)C(N(C)C)C(C)O4)C2OC5)c2nc-3cs2)n1)C(N)=O` (stereo not drawn), the MIC90 was 7.8 ng/mL (≈ 5.43 nM) (Streptococcus viridans; microbial growth; clinical isolate).
Under “objective response rate”, `COCC1CN(C2CCN(c3cc(OC)c(Nc4ncc(Br)c(Nc5ccc6c(c5P(C)(C)=O)OCCO6)n4)cc3C)CC2)C1` is recorded as 0% (RECIST 1.1; advanced EGFR-mutant NSCLC patients; 60 mg once daily).
With `O=C(O)c1ccc(Nc2c(-c3ccccc3)nc3ccc(CON=Cc4ccc(OCc5ccccc5)cc4)cn23)cc1` (mixture of isomers) the inhibition was 40.3% (TDP1; enzyme activity, inhibitor; 100 µM, unpurified compound).
`Cn1ncc2cc(-c3cncc(Cl)c3N3CCC4(CCNC4=O)CC3)ccc21`: “log2 fold change” -2.88 (LS174T; gene expression, microarray, measured: FAM65C mRNA; concentration not given, 4 h; relative to: untreated cells).
`Cc1ncsc1-c1ccc(C(C)NC(=O)C2CC(O)CN2C(=O)C(NC(=O)CCCCCCCCCCN2CCCC(Nc3ncc(Cl)c(Nc4ccccc4S(=O)(=O)C(C)C)n3)C2)C(C)(C)C)cc1` (stereo not drawn) — result for “log2 fold change”: -1.09 (22Rv1; RNA-seq, measured: PPP1R13L mRNA; concentration not given; relative to: DMSO).
Under “log2 fold change”, `COC1CN([C@H]2CC[C@H]([C@@]3(C)Oc4c(Cl)cc(C(=O)NCc5c(SC)cc(C)[nH]c5=O)c(C)c4O3)CC2)C1` is recorded as 2.53 (RNA-seq, measured: RTN2 mouse homolog; mouse, HT-1376 xenograft, whole blood; dose not given; relative to: vehicle).
`COc1cc(O)ccc1CCC(c1ccc(O)cc1)c1cc2c(c(C)c1O)OC(c1ccc(O)cc1)CC2` (mixture of isomers) gave a 12-HETE level of 7540 ± 2540 pg/mL (human blood; 10 µM, added: A23187).
For `CC(C)(C)NCC(SS(=O)(=O)O)c1ccccc1` (stereo not drawn), the liver weight was 4.19 g (Schistosoma mansoni; perfusion day 52; infected Swiss Webster mice; 400 mg/kg single dose, 1248 h, dosed day 7 post-infection).
For `C/C=C(/C)C(=O)O[C@@H]1C=C(C)CC[C@]2(O)[C@@H](C(C)C)CC(=O)[C@]12C`, the inhibition was 0% (Helicobacter pylori; microbial growth, broth dilution; 62.5 µg/mL).
`COCCOCCOCCNC(=O)Cc1cc(CC(=O)N[C@H]2C[C@H]3C(=O)Nc4cc(OCCOCCOCCOC)cc(n4)C(=O)N4CCC[C@H]4C(=O)Nc4cc(OCCOCCOCCOC)cc(n4)C(=O)N4CCC[C@H]4C(=O)Nc4cc(OCCOCCOCCOC)cc(n4)C(=O)N3C2)cc(CC(=O)N[C@H]2C[C@H]3C(=O)Nc4cc(OCCOCCOCCOC)cc(n4)C(=O)N4CCC[C@H]4C(=O)Nc4cc(OCCOCCOCCOC)cc(n4)C(=O)N4CCC[C@H]4C(=O)Nc4cc(OCCOCCOCCOC)cc(n4)C(=O)N3C2)c1` has a TΔS of 22 ± 0.1 kJ mol^–1 (anion binding, ITC; water; 298 K, added: sodium bromide).
